Assay results gathered from unrelated publications.
A part holds a random share of what one study measured. Changes are numbered by the printed parent chain.

Study 1
Target: CCNB2, cyclin fold, Cln2 fusion (human)
Technique: yeast growth competition, sequencing
Matrix: yeast
Setting: weak parent motif
Relative to: not given
Direction: higher = stronger binding
Measurement: normalised enrichment score
Starting sequence: E2F7 docking peptide (human); SSAQRRLEIPSGG
Variant = R5K; value = -0.359
Variant = R5A L7A; value = -0.0301
Variant = E8A; value = 0.27
Variant = I9L; value = 0.288
Variant = R6A; value = -0.576
Variant = G13A; value = 0.181
Variant = R5A; value = 0.0882
Variant = I9A; value = 0.0708
Variant = L7A; value = -0.269
Variant = R5K I9L; value = 0.0525

Study 2
Target: CREBRF, bZIP domain (human)
Technique: DHFR protein complementation
Matrix: yeast
Setting: single substitutions, most at no-binding floor
Relative to: wild-type JUN-FOS pair
Direction: higher = stronger binding
Measurement: binding fitness
Starting sequence: JUN, bZIP domain (human); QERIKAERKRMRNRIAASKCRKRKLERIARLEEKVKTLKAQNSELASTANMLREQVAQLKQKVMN; partner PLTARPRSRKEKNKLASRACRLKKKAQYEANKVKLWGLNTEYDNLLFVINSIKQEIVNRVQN
Variant = A49F; value = -1.49 natural log
Variant = A57T; value = -1.27 natural log
Variant = A46F; value = -1.53 natural log
Variant = L38S; value = -1.52 natural log
Variant = K36V; value = -1.31 natural log
Variant = V56F; value = -1.46 natural log
Variant = E44S; value = -1.61 natural log
Variant = A46W; value = -1.46 natural log
Variant = E32N; value = -1.44 natural log
Variant = L45K; value = -1.56 natural log
Variant = E32P; value = -1.52 natural log
Variant = L38R; value = -1.45 natural log
Variant = K34E; value = -1.34 natural log
Variant = Q41D; value = -1.51 natural log
Variant = R30Q; value = -1.3 natural log
Variant = L52M; value = -1.53 natural log
Variant = L38P; value = -1.54 natural log
Variant = M51H; value = -1.36 natural log
Variant = E32W; value = -1.55 natural log
Variant = N42R; value = -1.46 natural log

Study 3
Target: RNA binding protein fox-1 homolog 2, RRM domain, GST-SBP tag (RBFOX2, Homo sapiens, UniProt O43251-10, residues 100-194)
Technique: RNA Bind-n-Seq
Form: RNA
Matrix: in vitro
Concentration: 365 nM
Setting: natural RNA segment, single round, ends assumed
Relative to: no-protein control
Direction: higher = stronger binding
Measurement: RBNS enrichment (R)
Constant ends, left off below: GGGAGUUCUACAGUCCGACGAUC … UGGAAUUCUCGGGUGCCAA
Construct (chain): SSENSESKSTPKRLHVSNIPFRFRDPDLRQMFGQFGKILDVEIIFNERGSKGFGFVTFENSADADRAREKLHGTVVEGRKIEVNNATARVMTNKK
Strand = GUCUUGAACUCCCAACCUCAAGUGAUCUGCCCGCCUCGGCCUCCCAACGUGCUGGGAUUACAGGUGUGAGCCACUACGCCCCGGCCCAACUGGAUGGUUUUUGAUUGAAG; value = 0.345
Strand = UGGCUGCUCAACACACUCCUCCCCUCUCUCCUUUAAGCUGUGUCCAGUGAAAGCUGUCCUUCCUGUAUUCUGUUCUCUGGUAAUGUAAUAAGCAUGAUGGUGCCUUCUAU; value = 11.1
Strand = GGAGCACUCACAGGACUCACCCGGGUACGAAGAUUCCAACAGGAUGAUGCUCACAUAUUCUGUGCCAUGGAGCAGGUUGAAGAUGAAAUAAAAGGUUGUUUGGAUUUUCU; value = 0.905
Strand = CAUCUGUGUAGUCCUCAUACUGUUUACUGAUAACCCACAAAUUCAUUUUCAUGGCAGACCUAAGCUCAGACCCUGCCUUGUCCUGGCAAGCAUAGGUUUUCCCAGACCAC; value = 0.469
Strand = UAUUUUUGUACUACAUGGGGACUCUUCCUGCAUGUCAGCAAUAAAACUUCCUGAUCUGGAGCCACCAUGGUCUGUAGCCUGCCUCUGUGCUUGUCCGUGCGCUCUCUAGC; value = 2.05
Strand = UGCACUGAGGUAACAUCUAAAACAGAGAUGUGGUUCUUAAUGUUUAACAGAACAGUUCUAAUCCUGCCACGUGUUAUCAUUAUAGAUUUUAUAGUUGCCUUUCUAACUAC; value = 0.301
Strand = CCGGGGGUCCUGUGGAGGAGUACAUGGAGGACUCCAGGUACAGCGCAGGAGUCACGGCUUUUGUUUUUUGACAUUGGCCCCCGGUUCUACCAAUGACAGGGUGCCCUGGC; value = 0.29
Strand = AUGUGCGCUGGGAGUACUGCGUGCGCGCCAAGCGCGGCCAGACCGACACCUCGCUGCCAGGUUGUUUCAGCAAGGACCAGGUGUACCUGGACGGCAUCGUGCGCAUUCUG; value = 0.483
Strand = ACCCCGAUUGAAGUCUCUGAAACUUUCCUAUGGUUUUCUGUAUUAUAUGUCUGGAUGGAGCUGUUUAGAUACAUUGAUUGGUGGAUAUUUGGAGAAAGCAACAAAGAUAU; value = 0.707
Strand = UGAGCAUGUUUGUUUUGUCUGCUUUCUAUACAGAGCUCAGAUUUGUCUAAUGAUUUAAAUGUAACCCAAGACUUUAAGUGUGGGUUACUUAAUGUGUUCCUGAAGAGGUU; value = 3.36
Strand = CGCCCUCAUGGCCCUAGACUAUGGGGUUGAAAACUCAUAGCAGUCAGGUUUGUUUACCAUCUCUCCGAGCCUCCACCACACUCCCUGACCCACCCAACGUCUCCAGUUCU; value = 0.242
Strand = UCUCUCCUAGCCGCUGCUUUACAAACCCAGAGGAUGAGAGCCCAAGGUCGAGACUGGAGAAGCACACUUCCUUCUUGGGCAGCUUCCCACCAUGGCACAGGUGCUAUGGC; value = 0.307

Study 4
Target: ABI1, truncated, D143A, DHFR fusion (Arabidopsis thaliana)
Technique: DHFR PCA, deep sequencing
Matrix: yeast
Setting: methotrexate growth selection, single substitutions
Together with: (+)-ABA 0 µM
Relative to: wild-type fitted maximum
Direction: higher = stronger binding
Measurement: relative binding score
Starting sequence: PYL1, truncated, DHFR fusion (Arabidopsis thaliana); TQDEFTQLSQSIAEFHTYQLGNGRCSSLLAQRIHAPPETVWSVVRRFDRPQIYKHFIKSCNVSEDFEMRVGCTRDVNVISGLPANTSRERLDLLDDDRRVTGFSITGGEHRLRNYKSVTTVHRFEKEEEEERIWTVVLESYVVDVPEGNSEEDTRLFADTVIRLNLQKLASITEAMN; partner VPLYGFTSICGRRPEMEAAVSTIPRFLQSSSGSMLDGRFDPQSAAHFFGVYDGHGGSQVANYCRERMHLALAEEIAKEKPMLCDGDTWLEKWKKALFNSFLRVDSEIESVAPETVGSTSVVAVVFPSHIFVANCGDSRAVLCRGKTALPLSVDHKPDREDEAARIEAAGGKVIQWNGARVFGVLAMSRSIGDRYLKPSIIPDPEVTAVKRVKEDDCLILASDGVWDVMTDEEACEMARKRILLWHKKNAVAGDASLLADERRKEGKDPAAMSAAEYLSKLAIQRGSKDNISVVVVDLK
Variant = L20E; value = 30.5%
Variant = N149S; value = 61.6%
Variant = G107I; value = -5.24%
Variant = G148H; value = -2.1%
Variant = R99W; value = 62.6%
Variant = R111L; value = 0.786%
Variant = N165F; value = -5.2%
Variant = L20S; value = 34.3%
Variant = D97P; value = -4.32%
Variant = L169V; value = 1.48%
Variant = I57H; value = -0.748%
Variant = L8P; value = 0.0622%
Variant = G148V; value = 2.11%
Variant = P146N; value = -3.91%
Variant = S27G; value = 50%

Study 5
Target: RING finger protein unkempt homolog, zinc fingers 1-6, GST-SBP tag (UNK, Homo sapiens, UniProt Q9C0B0, residues 30-357)
Chain of UniProt Q9C0B0 (30-357, looked up): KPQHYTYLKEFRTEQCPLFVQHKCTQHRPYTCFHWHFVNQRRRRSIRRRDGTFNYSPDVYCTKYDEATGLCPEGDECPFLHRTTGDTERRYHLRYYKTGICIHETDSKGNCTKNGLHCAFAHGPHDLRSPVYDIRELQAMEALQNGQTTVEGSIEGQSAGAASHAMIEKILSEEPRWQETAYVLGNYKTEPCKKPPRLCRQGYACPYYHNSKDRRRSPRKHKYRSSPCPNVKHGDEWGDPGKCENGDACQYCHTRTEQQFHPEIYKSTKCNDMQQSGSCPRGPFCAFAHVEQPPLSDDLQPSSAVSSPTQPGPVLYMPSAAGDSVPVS
Technique: RNA Bind-n-Seq
Form: RNA
Matrix: in vitro
Concentration: not given
Setting: RNA with constant flanks, human-mouse chimeric sites, ends assumed
Relative to: input RNA pool
Direction: higher = stronger binding
Measurement: bound/input enrichment
Constant ends, left off below: GGGAGUUCUACAGUCCGACGAUC … CAACAGAGGAUUGAGCAUCA
Strand = GGACAUCUGUCAAAUUGUUAUGUUCCUGUGAAACAAGUGAACACUCUGAUACACUUCAUUUAGUUGUACAUCUGUAUGAUAGAGAAAUGUAAAUAUGAAUAUAUUUACAAUGUGUCACUU; value = 0.147 ratio
Strand = CCCACGCCUCCUCUCCCACAGGCCCAAGAUAUAACCCACCAGUGCCUUUUGUCUUCCUGUCAGCUCUGUCAAUCACGGCCCUGCCUUCACGCCCACACCAAGUGCCCAAAGUGGGGAGGG; value = 0.577 ratio
Strand = AAAGUGAUGACUAUGUUUGUCCAACGACAGGUAUUUUCUGAGAACAAAGAUGAGAUUGCGUUAGUCCUGUUUGGUACAGAUGGCACUGAUAAUGCCCUUGCUGGCAAGGACCAGUAUCAG; value = 0.0832 ratio
Strand = CGCUGGCCCAAGCUGAUGGACUCUGAUGGCCUCCAUCAAGGUAUUAUGUGUGCCUUCUCUUAGUCCCUGUUUUCGGGAUGUUAUGAAUCUCAGUACUGUUUGACAGAAGCACCAGCUUUG; value = 0.131 ratio
Strand = CAGCGCCGAGGCCGCGGUUUCCCCCUGGGCCUCCCCAGCCGCCGCCAUGGGCAUCAAAUUUUUAGAAGUUAUCAAACCUUUCUGUGCAGUUCUACCAGAAAUUCAGAAACCGGAAAGGAA; value = 1.75 ratio
Strand = UCUGAGGUACCACUGAAGAGACCUUAAAAGAAUCAUUUGAGGGCUCUGUUCGUGCAAGAAUAGUCACCUGACCGGGAACUGGUUCUUCCAAAGGGUUUGGUUUUGUAGACUUUAAUAGUG; value = 0.816 ratio
Strand = CAGGGCAUCAUCUCUCGAGCUGUUAAACACCUGUUCAAGAGUAUUGAUGAGAAAAAGACCUCAGCGAUUAAAAACGGGCUGCCCCCUCCUGAAUUCAAAGUGAAUGCCCAGUUCCUAGAG; value = 0.335 ratio
Strand = ACUCUUGACUCUUUCCAUCCUCUUCCUUUCCCUCUUGAUAUUCAAGGCCAUGAAUCCCAAAAUAACAGUCUUAGUGGGAGGCUAGCAAACAGAGGUGGAAUAAAUCCAAACUGACAACUC; value = 0.34 ratio
Strand = CUUCGGAAAAAAAAAUUACCUUUUCUGACAGUGCUUUCCCUCCCAUAGAUCCACGUUCAAGCUCAAAGAGCAAAGGCUUUGCACGGAUCUGAUGAUGCUGAUGAAGAAAGAUUUCUGAGA; value = 0.218 ratio
Strand = CGCGUCCUCUCGCUGCUGCGGAGCCCGAGCUGGGAACACCCCUUCCGCUGGUACCCUGCACACAGCCGCCUCUUCGAUCAAGCUUUCGGGGUGCCCCGGUUGCCCGAUGAGUGGUCGCAG; value = 0.089 ratio
Strand = CUCAGAGACGUGGCAUAUCAAUAUGUGAAAAAGGGGGCUCGUAUAUUUGUGGAAGGGAAAGUGGACUAUGGCGAGUACAUGGAUAAAAACAAUGUGAGGCGGCAAGCAACAACAAUCAUA; value = 0.383 ratio

Single results of other studies
Substance = PhoQ, residues 284 288 289 292 302 303 TTSMTC; target = PhoP, residues 12 14 15 18 19 GHCSL (Escherichia coli, UniProt P23836); assay = Sort-seq, measured: YFP reporter; system = E. coli; setting = PhoQ-PhoP variant library, together with: 10 µM Mg2+; scale = relative to: high Mg2+ state, higher = stronger signaling; measurement = fold induction; value = 12.1

For quick reference, copied from above (study 5):
Strand = GGACAUCUGUCAAAUUGUUAUGUUCCUGUGAAACAAGUGAACACUCUGAUACACUUCAUUUAGUUGUACAUCUGUAUGAUAGAGAAAUGUAAAUAUGAAUAUAUUUACAAUGUGUCACUU; value = 0.147 ratio
Strand = CCCACGCCUCCUCUCCCACAGGCCCAAGAUAUAACCCACCAGUGCCUUUUGUCUUCCUGUCAGCUCUGUCAAUCACGGCCCUGCCUUCACGCCCACACCAAGUGCCCAAAGUGGGGAGGG; value = 0.577 ratio
Strand = AAAGUGAUGACUAUGUUUGUCCAACGACAGGUAUUUUCUGAGAACAAAGAUGAGAUUGCGUUAGUCCUGUUUGGUACAGAUGGCACUGAUAAUGCCCUUGCUGGCAAGGACCAGUAUCAG; value = 0.0832 ratio
Strand = CGCUGGCCCAAGCUGAUGGACUCUGAUGGCCUCCAUCAAGGUAUUAUGUGUGCCUUCUCUUAGUCCCUGUUUUCGGGAUGUUAUGAAUCUCAGUACUGUUUGACAGAAGCACCAGCUUUG; value = 0.131 ratio
Strand = CAGCGCCGAGGCCGCGGUUUCCCCCUGGGCCUCCCCAGCCGCCGCCAUGGGCAUCAAAUUUUUAGAAGUUAUCAAACCUUUCUGUGCAGUUCUACCAGAAAUUCAGAAACCGGAAAGGAA; value = 1.75 ratio
Strand = UCUGAGGUACCACUGAAGAGACCUUAAAAGAAUCAUUUGAGGGCUCUGUUCGUGCAAGAAUAGUCACCUGACCGGGAACUGGUUCUUCCAAAGGGUUUGGUUUUGUAGACUUUAAUAGUG; value = 0.816 ratio
Strand = CAGGGCAUCAUCUCUCGAGCUGUUAAACACCUGUUCAAGAGUAUUGAUGAGAAAAAGACCUCAGCGAUUAAAAACGGGCUGCCCCCUCCUGAAUUCAAAGUGAAUGCCCAGUUCCUAGAG; value = 0.335 ratio
